Results pooled from the literature.
Parts stem from different laboratories: compare values within a part only. Positions count from the first letter of the parent shown.

Set 1 — method: RNA Bind-n-Seq; form: RNA; medium: in vitro; concentration: 1 µM; notes: whole 134-nt RNA, ends assumed; with: 150 mM KCl; relative to: input library; reading: higher = stronger binding; endpoint: log2 enrichment
Target: Ras GTPase-activating protein-binding protein 1, RRM domain (G3BP1, Homo sapiens, UniProt Q13283)
UniProt Q13283, sequence (whole entry, looked up): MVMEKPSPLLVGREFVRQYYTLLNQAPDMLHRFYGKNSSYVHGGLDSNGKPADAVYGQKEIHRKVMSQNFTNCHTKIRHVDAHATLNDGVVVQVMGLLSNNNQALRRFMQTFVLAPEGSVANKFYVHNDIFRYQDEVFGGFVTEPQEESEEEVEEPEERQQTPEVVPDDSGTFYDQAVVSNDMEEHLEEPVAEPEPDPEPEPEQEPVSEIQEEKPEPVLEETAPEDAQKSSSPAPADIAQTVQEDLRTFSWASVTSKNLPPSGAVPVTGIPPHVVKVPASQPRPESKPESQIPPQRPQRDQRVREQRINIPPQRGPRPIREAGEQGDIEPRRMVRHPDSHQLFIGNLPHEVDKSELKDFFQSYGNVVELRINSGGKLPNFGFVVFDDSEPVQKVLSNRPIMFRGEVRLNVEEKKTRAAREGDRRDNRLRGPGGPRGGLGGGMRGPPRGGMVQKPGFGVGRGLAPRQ
All sequences stand within: GGGAGUUCUACAGUCCGACGAUC … UGGAAUUCUCGGGUGUCAAGG
UGCCUUGCAGAUACGUGGCUUUCCUGAAGCUGUUCCUGGAGACGGCGGAGAAGCACUUCAUGGUGGGCCACCGUGUCCACUACUAUGUCU: -0.0924
CACAGACAACACGCACCCACACAGACACAGAGGGAAGGGGUUGGGAUGGGGACAGGGUGCACAGCAGGGCGGGGUAGGACCCCAGCCCCA: -0.308
GCAGGAAGUAAAAACAAAUGGAGAUGCUUCGGAUAGUGGCAGGGGUGGGGGUUGCUAAGGAAAGGGUGGGAUGGGAGUGGGUAAAGAGUU: 1.6
UGGGAGGUGGAUUUUGUUUAUUUUUUUAGCUCAAUUCCAGGGGUGGGAAUUUUUUUUUAAUAUGUGUCAUGAAUAAAGUUGUUUUUGAAA: 2
ACCAUGCAGGUGGGCAUCUUUGGGAAGUGGGGCAAGGGGGGGAUAGGGAGGGGGGUAACACUUUGGGAACAGGUGGUCCCAGGUCGUGUC: 0.982
AGUCCUGUGCUACACAUCGUAUGUACCGAAUCGGAAAAAGGGGAAAAAGGAAAAAGGAAAGUAUUAUGUUACGCCGUUCGGAUCUGCACU: -0.0129
AGUCCUGUGCUACACAUCGUAUGUACCGAAUCGGGGUUUUGGUUUUGGGGUUUUGGGAAAGUAUUAUGUUACGCCGUUCGGAUCUGCACU: -0.000447
UCCUCAAGUCCUGUGCUACACAUCGUAUGUACCGAAUCGGUGGUGGUGGGGAAAGUAUUAUGUUACGCCGUUCGGAUCUGCACUUCCAGC: -0.106
UCCUGUGCUACACAUCGUAUGUACCGAAUCAAACCCCCCCAAAUUUUUUUAAAUUUAAAAAAGUAUUAUGUUACGCCGUUCGGAUCUGCA: -0.356
UCAAGUCCUGUGCUACACAUCGUAUGUACCGAAUCGGGCCGGGGCCGGGCCGGGGAAAGUAUUAUGUUACGCCGUUCGGAUCUGCACUUC: -0.728

Set 2 — target: ATF3, bZIP domain (human); method: DHFR protein complementation; medium: yeast; relative to: wild-type JUN-FOS pair; reading: higher = stronger binding; endpoint: binding fitness
Notes: single substitutions, most at no-binding floor
Parent: JUN, bZIP domain (human); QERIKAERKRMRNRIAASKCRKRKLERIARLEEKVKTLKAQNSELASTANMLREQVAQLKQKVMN; partner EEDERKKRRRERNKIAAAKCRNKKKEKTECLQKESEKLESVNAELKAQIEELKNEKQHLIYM
V35A: -0.849 natural log
A46E: 0.00159 natural log
K39T: -0.198 natural log
R53M: -0.237 natural log
N42F: -0.455 natural log
N42Q: -0.167 natural log
N42P: -1.36 natural log
M51P: -1.39 natural log
E33L: -0.143 natural log
N42L: -1.06 natural log
M51S: -0.0682 natural log
L31N: -0.81 natural log
A57V: -0.312 natural log
E32F: -0.747 natural log
S47I: -0.0919 natural log
R53K: -0.114 natural log
V35H: -0.774 natural log

Set 3 — method: DHFR PCA, deep sequencing; medium: yeast; with: (+)-ABA 1.4 µM; relative to: wild-type fitted maximum; reading: higher = stronger binding; endpoint: relative binding score
Target: ABI1, truncated, D143A, DHFR fusion (Arabidopsis thaliana)
Notes: methotrexate growth selection, single substitutions
Parent: PYL1, truncated, DHFR fusion (Arabidopsis thaliana); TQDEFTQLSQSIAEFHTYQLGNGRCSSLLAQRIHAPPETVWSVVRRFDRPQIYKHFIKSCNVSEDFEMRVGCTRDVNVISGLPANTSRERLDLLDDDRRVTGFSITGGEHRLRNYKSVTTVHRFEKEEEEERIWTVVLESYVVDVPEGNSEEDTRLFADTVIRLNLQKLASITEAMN; partner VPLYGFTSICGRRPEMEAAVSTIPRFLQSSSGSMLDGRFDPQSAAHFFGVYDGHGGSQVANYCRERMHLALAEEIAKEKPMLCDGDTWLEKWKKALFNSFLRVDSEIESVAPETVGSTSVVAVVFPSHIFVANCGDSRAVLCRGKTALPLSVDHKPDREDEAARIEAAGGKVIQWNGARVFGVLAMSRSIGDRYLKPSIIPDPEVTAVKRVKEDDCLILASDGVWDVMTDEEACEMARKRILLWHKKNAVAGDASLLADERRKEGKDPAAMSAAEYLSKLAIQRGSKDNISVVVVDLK
F56C: -7.26%
Q2C: 69.3%
L94E: 6.01%
T6S: 64.6%
K126D: 77%
V78G: 1.05%
V143G: -3.51%
Q19K: 65%
E131G: 82.4%
S42H: 25.7%
V142M: 22.2%
N22F: 41.8%
V161Q: 18.4%
S87R: 36.8%
P83E: -6.69%
N77A: 67%
M176I: 32.4%
I172L: 40.4%
I52M: 57.9%
A158F: -34%
L156M: 61.2%

Set 4 — target: CCNF, cyclin fold, Cln2 fusion (human); method: yeast growth competition, sequencing; medium: yeast; notes: strong parent motif; relative to: not given; reading: higher = stronger binding; endpoint: normalised enrichment score
Parent: CDC6 docking peptide (human); TLKGRRLVFDNQL
R5F: 0.687
R5I: 2.19
V8Y: 10.1
F9L: 6.48
N11Y: 9.94
L2G: 7.34
Q12P: 9
V8S: 6.18
L2Q: 7.79
N11V: 9.09
D10P: 8.2
L13A: 9.27
G4H: 3.72
T1P: 8.94
L7V: 1.1
T1K: 10.8

Excerpt of the above (set 3):
N77A: 67%
I172L: 40.4%
Q2C: 69.3%
L156M: 61.2%
E131G: 82.4%
V142M: 22.2%
L94E: 6.01%
V143G: -3.51%
